Experimental data from different studies.
Every numbered part comes from another study and shows a few of its results, in no order.
Sequence of UniProt O75676 (whole entry, looked up): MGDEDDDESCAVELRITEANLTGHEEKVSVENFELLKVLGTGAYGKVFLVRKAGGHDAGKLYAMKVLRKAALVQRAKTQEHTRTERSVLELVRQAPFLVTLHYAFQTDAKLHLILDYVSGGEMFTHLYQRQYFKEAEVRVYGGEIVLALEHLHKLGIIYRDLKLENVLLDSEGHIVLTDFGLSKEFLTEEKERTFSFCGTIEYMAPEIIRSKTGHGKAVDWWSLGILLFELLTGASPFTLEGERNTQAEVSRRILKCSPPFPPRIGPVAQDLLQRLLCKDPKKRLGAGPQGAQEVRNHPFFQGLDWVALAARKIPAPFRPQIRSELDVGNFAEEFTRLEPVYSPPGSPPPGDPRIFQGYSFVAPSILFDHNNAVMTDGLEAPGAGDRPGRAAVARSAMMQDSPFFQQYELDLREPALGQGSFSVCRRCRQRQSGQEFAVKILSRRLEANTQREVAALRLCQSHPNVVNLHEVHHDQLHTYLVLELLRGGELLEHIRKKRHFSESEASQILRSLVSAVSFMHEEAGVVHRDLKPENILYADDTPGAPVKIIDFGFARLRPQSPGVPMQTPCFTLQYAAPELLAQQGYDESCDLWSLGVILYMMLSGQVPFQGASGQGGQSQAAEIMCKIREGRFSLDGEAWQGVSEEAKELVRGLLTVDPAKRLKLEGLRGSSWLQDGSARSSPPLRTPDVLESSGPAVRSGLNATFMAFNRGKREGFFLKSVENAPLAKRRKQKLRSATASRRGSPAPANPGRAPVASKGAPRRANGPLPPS
Sequence of UniProt O95819 (whole entry, looked up): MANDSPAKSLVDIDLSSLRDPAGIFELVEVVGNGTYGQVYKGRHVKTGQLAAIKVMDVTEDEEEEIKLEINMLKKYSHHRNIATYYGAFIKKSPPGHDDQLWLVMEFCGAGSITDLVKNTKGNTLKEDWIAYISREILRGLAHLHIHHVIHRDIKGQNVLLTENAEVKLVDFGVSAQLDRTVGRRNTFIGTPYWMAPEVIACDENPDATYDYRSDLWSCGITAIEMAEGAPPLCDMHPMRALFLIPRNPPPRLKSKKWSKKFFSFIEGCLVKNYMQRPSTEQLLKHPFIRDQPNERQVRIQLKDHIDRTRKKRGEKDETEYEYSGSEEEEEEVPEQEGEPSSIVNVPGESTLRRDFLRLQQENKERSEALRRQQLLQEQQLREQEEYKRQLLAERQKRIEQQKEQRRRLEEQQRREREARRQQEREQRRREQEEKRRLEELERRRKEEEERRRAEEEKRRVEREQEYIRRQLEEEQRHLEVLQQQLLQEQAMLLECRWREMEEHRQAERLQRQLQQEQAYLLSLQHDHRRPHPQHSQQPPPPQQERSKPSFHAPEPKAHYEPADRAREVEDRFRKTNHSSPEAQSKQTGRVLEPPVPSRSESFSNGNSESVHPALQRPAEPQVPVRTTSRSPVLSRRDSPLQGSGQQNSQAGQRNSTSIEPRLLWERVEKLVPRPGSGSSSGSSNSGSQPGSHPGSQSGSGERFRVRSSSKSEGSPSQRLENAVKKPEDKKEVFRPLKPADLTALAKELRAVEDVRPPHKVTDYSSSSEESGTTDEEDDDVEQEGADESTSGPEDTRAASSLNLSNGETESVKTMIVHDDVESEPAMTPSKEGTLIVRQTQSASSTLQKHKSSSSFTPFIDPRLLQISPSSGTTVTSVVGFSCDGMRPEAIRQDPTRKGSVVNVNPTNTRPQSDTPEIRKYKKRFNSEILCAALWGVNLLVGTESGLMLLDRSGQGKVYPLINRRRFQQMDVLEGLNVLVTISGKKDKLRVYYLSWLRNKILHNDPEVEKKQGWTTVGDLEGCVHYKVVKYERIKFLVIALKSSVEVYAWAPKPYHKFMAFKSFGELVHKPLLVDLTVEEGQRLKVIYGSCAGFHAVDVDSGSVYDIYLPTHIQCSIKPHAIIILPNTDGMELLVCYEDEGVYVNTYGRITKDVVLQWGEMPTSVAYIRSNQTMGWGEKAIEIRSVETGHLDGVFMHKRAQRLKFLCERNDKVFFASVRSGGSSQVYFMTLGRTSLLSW
Sequence of UniProt Q99558 (whole entry, looked up): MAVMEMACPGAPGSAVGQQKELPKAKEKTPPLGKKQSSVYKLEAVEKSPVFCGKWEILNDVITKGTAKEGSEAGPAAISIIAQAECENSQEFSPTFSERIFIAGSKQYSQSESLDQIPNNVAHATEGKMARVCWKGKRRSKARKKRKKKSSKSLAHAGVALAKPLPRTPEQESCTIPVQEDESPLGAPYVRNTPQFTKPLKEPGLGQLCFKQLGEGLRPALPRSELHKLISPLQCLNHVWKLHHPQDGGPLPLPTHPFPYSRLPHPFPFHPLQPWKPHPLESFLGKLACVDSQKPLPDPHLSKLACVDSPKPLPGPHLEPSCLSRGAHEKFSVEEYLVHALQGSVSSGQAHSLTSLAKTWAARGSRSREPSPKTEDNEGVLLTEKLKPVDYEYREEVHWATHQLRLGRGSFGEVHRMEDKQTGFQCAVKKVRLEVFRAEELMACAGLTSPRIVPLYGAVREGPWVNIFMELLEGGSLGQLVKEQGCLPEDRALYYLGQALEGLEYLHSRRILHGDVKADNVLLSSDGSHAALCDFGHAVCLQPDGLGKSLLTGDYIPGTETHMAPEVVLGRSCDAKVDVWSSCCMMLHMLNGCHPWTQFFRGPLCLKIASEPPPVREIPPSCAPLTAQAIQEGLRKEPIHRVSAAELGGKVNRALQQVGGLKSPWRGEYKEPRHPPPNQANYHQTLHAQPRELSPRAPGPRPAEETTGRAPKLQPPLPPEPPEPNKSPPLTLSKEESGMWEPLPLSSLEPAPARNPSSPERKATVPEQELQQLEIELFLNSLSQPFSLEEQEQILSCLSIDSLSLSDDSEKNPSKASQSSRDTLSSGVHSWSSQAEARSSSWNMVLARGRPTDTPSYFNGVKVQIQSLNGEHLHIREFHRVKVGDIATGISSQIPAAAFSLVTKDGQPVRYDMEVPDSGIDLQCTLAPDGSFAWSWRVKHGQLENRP
Sequence of UniProt P07948 (whole entry, looked up): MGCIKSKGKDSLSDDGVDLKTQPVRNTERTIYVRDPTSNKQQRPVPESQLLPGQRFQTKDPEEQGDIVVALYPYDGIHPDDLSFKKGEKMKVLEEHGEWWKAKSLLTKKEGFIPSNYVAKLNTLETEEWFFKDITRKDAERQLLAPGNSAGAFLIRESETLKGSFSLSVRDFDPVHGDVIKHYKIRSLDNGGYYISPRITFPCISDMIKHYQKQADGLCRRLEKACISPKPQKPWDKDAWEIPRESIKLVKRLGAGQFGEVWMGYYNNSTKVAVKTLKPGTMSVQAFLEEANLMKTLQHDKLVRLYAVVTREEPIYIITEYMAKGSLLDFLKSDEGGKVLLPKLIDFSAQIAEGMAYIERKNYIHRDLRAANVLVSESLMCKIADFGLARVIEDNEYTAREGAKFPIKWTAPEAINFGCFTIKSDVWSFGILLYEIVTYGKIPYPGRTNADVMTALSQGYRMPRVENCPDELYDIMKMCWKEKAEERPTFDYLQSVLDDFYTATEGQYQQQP

Block 1
Target: Ephrin type-A receptor 1 (EPHA1, Homo sapiens, UniProt P21709)
Sequence of UniProt P21709 (whole entry, looked up): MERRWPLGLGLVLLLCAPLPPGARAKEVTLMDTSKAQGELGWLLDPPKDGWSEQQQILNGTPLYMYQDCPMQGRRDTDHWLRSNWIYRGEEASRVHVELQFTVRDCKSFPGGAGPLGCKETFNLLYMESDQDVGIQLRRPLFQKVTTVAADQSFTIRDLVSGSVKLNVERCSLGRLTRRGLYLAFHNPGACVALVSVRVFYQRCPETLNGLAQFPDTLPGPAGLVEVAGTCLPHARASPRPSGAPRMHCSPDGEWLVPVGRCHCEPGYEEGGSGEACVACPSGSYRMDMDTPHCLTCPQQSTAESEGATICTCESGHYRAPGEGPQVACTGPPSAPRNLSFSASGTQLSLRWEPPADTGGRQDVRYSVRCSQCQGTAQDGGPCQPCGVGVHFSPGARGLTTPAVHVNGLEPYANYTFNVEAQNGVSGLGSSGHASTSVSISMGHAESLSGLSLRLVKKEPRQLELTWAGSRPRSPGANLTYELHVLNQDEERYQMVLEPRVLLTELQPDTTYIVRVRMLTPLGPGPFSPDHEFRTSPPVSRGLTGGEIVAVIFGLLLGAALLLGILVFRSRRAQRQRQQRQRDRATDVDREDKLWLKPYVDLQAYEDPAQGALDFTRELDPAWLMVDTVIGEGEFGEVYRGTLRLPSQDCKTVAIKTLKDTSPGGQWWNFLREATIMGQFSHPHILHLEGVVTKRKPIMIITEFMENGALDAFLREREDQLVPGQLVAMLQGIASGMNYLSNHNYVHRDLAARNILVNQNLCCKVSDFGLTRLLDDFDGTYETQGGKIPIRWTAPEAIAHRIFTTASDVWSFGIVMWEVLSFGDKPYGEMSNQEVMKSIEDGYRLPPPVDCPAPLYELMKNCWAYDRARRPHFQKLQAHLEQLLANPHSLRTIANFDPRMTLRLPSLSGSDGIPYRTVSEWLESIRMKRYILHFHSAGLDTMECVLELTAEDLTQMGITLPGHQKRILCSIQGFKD
Effect on: enzyme activity
Action: inhibitor
Concentration: 0.5 µM
Reference: control
With `C[C@@H](N)[C@H]1CC[C@H](C(=O)Nc2ccncc2)CC1` the remaining activity was 102%.
The remaining activity of `N#C/C(=C(/N)SC1C=CC=CC1)c1cccc(C(O)c2ccncc2)c1` (centres unmarked) is reported as 91.1%.
The remaining activity of `CCCCc1c(-c2ccc(O)cc2)[nH]c2nccnc12` is reported as 68.8%.
`O=C1c2ccccc2-c2nc3nnnn3nc21` gave a remaining activity of 73.1%.
For `FC(F)(F)c1ccc(/C=C/c2nc(COc3ccc(CCCCn4ccnn4)cc3)co2)cc1`, the remaining activity was 97.2%.
`O=C(O)/C=C/c1cc(Br)c(Br)c(Br)c1Br` has a remaining activity of 94.6%.
The remaining activity of `CNc1cc2c(Nc3cccc(Br)c3)ncnc2cn1` is reported as 103%.
With `CCN(CC)CCCCN1c2ccccc2Oc2ccc(Cl)cc21` the remaining activity was 90.5%.
For `O=C1NC(=O)/C(=C/c2ccc3c(c2)OC(F)(F)O3)S1`, the remaining activity was 90.2%.
The remaining activity of `NC(=O)c1cccc(-c2cc(Nc3ccc(OC(F)(F)F)cc3)ncn2)c1` is reported as 90.1%.
With `NC(=O)c1ccc(-c2nc(-c3ccc4c(c3)OCCO4)c(-c3ccccn3)[nH]2)cc1` the remaining activity was 102%.
For `c1cc(-c2cnn3cc(-c4ccc(OCCN5CCCCC5)cc4)cnc23)ccn1`, the remaining activity was 31.4%.
The remaining activity of `CC(C)(C)c1nc2c3cc[nH]c(=O)c3c3cc(F)ccc3c2[nH]1` is reported as 80.5%.
For `CC(C)n1cnc2c(Nc3cccc(Cl)c3)nc(NCCO)nc21`, the remaining activity was 94.1%.
The remaining activity of `COc1cc2c(Nc3ccc(Br)cc3F)ncnc2cc1OCC1CCN(C)CC1` is reported as 31.7%.
For `O=C(c1ccccc1)c1ccc(N2CCOCC2)cc1O`, the remaining activity was 89.1%.
`Clc1ccc(Nc2nnc(Cc3ccncc3)c3ccccc23)cc1` gave a remaining activity of 96%.
The remaining activity of `N#CC(c1ccnc(NCCc2cccnc2)n1)c1nc2ccccc2s1` (centres unmarked) is reported as 95.5%.
`COc1cc2c(N3CCN(C(=O)Nc4ccc(OC(C)C)cc4)CC3)ncnc2cc1OCCCN1CCCCC1` gave a remaining activity of 96.1%.
The remaining activity of `Nc1nc(Nc2ccc(S(N)(=O)=O)cc2)nn1C(=S)Nc1c(F)cccc1F` is reported as 37.4%.
For `O=Nc1c(-c2c(O)[nH]c3ccccc23)[nH]c2ccccc12`, the remaining activity was 99.4%.
With `CC(C)N(CCC(=O)c1ccc2ccccc2c1)Cc1ccccc1` the remaining activity was 92.4%.

Block 2
Compound: CCCOc1ccc([C@@H]2[C@@H](C(=O)O)[C@H](c3ccc4c(c3)OCO4)CN2CC(=O)Nc2c(CC)cccc2CC)cc1
Concentration: 1 µM
Ribosomal protein S6 kinase alpha-4, N-terminal kinase domain (RPS6KA4, Homo sapiens, UniProt O75676); cell-free assay, competition with immobilised ligand — remaining binding: 97%.
It gave 82% for remaining binding (MAP3K14 (Homo sapiens, UniProt Q99558); cell-free assay, competition with immobilised ligand).
For LYN (Homo sapiens, UniProt P07948); cell-free assay, competition with immobilised ligand: remaining binding read 96%.
For PIK3CA (Homo sapiens, UniProt P42336, C420R); cell-free assay, competition with immobilised ligand: remaining binding read 100%.
It gave 97% for remaining binding (MAP4K4 (Homo sapiens, UniProt O95819); cell-free assay, competition with immobilised ligand).
The remaining binding was 98% (GAK (Homo sapiens, UniProt O14976); cell-free assay, competition with immobilised ligand).
RAF1 (Homo sapiens, UniProt P04049); cell-free assay, competition with immobilised ligand — remaining binding: 100%.
NTRK1 (Homo sapiens, UniProt P04629); cell-free assay, competition with immobilised ligand — remaining binding: 97%.
The remaining binding was 87% (CDK9 (Homo sapiens, UniProt P50750); cell-free assay, competition with immobilised ligand).
AAK1 (Homo sapiens, UniProt Q2M2I8); binding — remaining binding: 90%.
For NEK7 (Homo sapiens, UniProt Q8TDX7); cell-free assay, competition with immobilised ligand: remaining binding read 100%.
It gave 93% for remaining binding (CLK1 (Homo sapiens, UniProt P49759); cell-free assay, competition with immobilised ligand).
It gave 89% for remaining binding (DDR1 (Homo sapiens, UniProt Q08345); cell-free assay, competition with immobilised ligand).
It gave 59% for remaining binding (MAPK6 (Homo sapiens, UniProt Q16659); cell-free assay, competition with immobilised ligand).
ULK1 (Homo sapiens, UniProt O75385); cell-free assay, competition with immobilised ligand — remaining binding: 77%.
It gave 87% for remaining binding (FYN (Homo sapiens, UniProt P06241); cell-free assay, competition with immobilised ligand).
The remaining binding was 84% (LRRK2 (Homo sapiens, UniProt Q5S007); cell-free assay, competition with immobilised ligand).
MAPK9 (Homo sapiens, UniProt P45984); cell-free assay, competition with immobilised ligand — remaining binding: 80%.
CIT (Homo sapiens, UniProt O14578); cell-free assay, competition with immobilised ligand — remaining binding: 98%.
For AXL (Homo sapiens, UniProt P30530); cell-free assay, competition with immobilised ligand: remaining binding read 93%.
It gave 86% for remaining binding (DYRK1A (Homo sapiens, UniProt Q13627); cell-free assay, competition with immobilised ligand).
The remaining binding was 79% (Tyrosine-protein kinase JAK2, JH1 (JAK2, Homo sapiens, UniProt O60674); cell-free assay, competition with immobilised ligand).

Block 3
Cell line: HaCaT
Concentration: 100 µM
Time: 18 h
For `C[C@@H](c1nc(-c2ccc(C#N)cc2)cs1)[C@](O)(Cn1cncn1)c1cc(F)ccc1F`, the viability was 30.1%.
`OC[C@@H](O)[C@@H](O[C@@H]1O[C@H](CO)[C@H](O)[C@H](O)[C@H]1O)[C@H](O)[C@@H](O)CO` has a viability of 112%.
`CCN(CC)CCOc1ccc2c(c1)C(=O)c1cc(OCCN(CC)CC)ccc1-2` gave a viability of 35.4%.
For `O=C(O)CCc1nc(-c2ccccc2)c(-c2ccccc2)o1`, the viability was 99.8%.
The viability of `CCCC(=O)O[C@]1(C(=O)CO)CC[C@H]2[C@@H]3CCC4=CC(=O)CC[C@]4(C)[C@H]3[C@@H](O)C[C@@]21C` is reported as 98.9%.
The viability of `C[C@H](CCC(=O)O)[C@H]1CC[C@H]2[C@@H]3C(=O)C[C@@H]4CC(=O)CC[C@]4(C)[C@H]3CC(=O)[C@]12C` is reported as 94.6%.
The viability of `N=C(N)N/N=C/c1c(Cl)cccc1Cl` is reported as 85.1%.
With `CC(c1cc2ccccc2s1)N(O)C(N)=O` (centres unmarked) the viability was 94.6%.
For `COc1cc2c(Nc3ccc(Br)cc3F)ncnc2cc1OCC1CCN(C)CC1`, the viability was 16.3%.

Block 4
Target: Calcium/calmodulin-dependent protein kinase type II subunit alpha (CAMK2A, Homo sapiens, UniProt Q9UQM7)
Sequence of UniProt Q9UQM7 (whole entry, looked up): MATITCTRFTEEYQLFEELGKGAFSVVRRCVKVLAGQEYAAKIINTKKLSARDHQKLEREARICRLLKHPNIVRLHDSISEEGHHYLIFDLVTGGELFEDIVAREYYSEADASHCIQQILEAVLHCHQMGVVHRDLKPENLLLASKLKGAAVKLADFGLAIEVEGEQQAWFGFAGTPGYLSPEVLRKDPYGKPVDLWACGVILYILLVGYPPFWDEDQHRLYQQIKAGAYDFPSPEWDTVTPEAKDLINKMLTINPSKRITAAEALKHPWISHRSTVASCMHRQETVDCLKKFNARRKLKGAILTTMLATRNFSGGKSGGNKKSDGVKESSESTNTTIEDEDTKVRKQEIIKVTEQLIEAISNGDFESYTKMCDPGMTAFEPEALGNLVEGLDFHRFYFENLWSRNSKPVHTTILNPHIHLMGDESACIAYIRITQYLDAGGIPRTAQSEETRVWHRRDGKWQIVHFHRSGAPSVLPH
Effect on: enzyme activity
Action: inhibitor
Concentration: 10 µM
`CCOCc1ccccc1` has an inhibition of -21%.
`CCCSc1nc(N[C@@H]2C[C@H]2c2ccc(F)c(F)c2)c2nnn([C@@H]3C[C@H](OCCO)[C@@H](O)[C@H]3O)c2n1` gave an inhibition of -7%.
`COc1cc2c(cc1OC)OC(C)(C)C=C2` has an inhibition of 3%.
For `Cn1c(=O)c2c(ncn2CCO)n(C)c1=O`, the inhibition was -4%.
The inhibition of `COc1cc(/C=C/CO)cc(OC)c1O[C@@H]1O[C@H](CO)[C@@H](O)[C@H](O)[C@H]1O` is reported as -26%.
With `OC[C@H]1O[C@@H](O[C@@H]2OC=C[C@H]3[C@H](O)[C@@H]4O[C@]4(CO)[C@@H]23)[C@H](O)[C@@H](O)[C@@H]1O` the inhibition was -39%.
With `O=C1c2ccccc2C(=O)C1c1ccccc1` the inhibition was -3%.
`Nc1ncnc2c1ncn2[C@@H]1O[C@H](COP(=O)(O)OP(=O)(O)O)[C@@H](O)[C@H]1O` has an inhibition of 9%.
With `COC(=O)c1ccc(OC)cc1` the inhibition was 7%.

For quick reference, copied from above (block 2):
NTRK1 (Homo sapiens, UniProt P04629); cell-free assay, competition with immobilised ligand — remaining binding: 97%.
For AXL (Homo sapiens, UniProt P30530); cell-free assay, competition with immobilised ligand: remaining binding read 93%.
ULK1 (Homo sapiens, UniProt O75385); cell-free assay, competition with immobilised ligand — remaining binding: 77%.
CIT (Homo sapiens, UniProt O14578); cell-free assay, competition with immobilised ligand — remaining binding: 98%.
MAPK9 (Homo sapiens, UniProt P45984); cell-free assay, competition with immobilised ligand — remaining binding: 80%.
It gave 82% for remaining binding (MAP3K14 (Homo sapiens, UniProt Q99558); cell-free assay, competition with immobilised ligand).
It gave 93% for remaining binding (CLK1 (Homo sapiens, UniProt P49759); cell-free assay, competition with immobilised ligand).
It gave 87% for remaining binding (FYN (Homo sapiens, UniProt P06241); cell-free assay, competition with immobilised ligand).
